Measured values collected from several papers.
Lines come from different studies, so protocols differ. ± gives the spread as reported.
Sequence of UniProt P35499 (whole entry, unmodified, looked up): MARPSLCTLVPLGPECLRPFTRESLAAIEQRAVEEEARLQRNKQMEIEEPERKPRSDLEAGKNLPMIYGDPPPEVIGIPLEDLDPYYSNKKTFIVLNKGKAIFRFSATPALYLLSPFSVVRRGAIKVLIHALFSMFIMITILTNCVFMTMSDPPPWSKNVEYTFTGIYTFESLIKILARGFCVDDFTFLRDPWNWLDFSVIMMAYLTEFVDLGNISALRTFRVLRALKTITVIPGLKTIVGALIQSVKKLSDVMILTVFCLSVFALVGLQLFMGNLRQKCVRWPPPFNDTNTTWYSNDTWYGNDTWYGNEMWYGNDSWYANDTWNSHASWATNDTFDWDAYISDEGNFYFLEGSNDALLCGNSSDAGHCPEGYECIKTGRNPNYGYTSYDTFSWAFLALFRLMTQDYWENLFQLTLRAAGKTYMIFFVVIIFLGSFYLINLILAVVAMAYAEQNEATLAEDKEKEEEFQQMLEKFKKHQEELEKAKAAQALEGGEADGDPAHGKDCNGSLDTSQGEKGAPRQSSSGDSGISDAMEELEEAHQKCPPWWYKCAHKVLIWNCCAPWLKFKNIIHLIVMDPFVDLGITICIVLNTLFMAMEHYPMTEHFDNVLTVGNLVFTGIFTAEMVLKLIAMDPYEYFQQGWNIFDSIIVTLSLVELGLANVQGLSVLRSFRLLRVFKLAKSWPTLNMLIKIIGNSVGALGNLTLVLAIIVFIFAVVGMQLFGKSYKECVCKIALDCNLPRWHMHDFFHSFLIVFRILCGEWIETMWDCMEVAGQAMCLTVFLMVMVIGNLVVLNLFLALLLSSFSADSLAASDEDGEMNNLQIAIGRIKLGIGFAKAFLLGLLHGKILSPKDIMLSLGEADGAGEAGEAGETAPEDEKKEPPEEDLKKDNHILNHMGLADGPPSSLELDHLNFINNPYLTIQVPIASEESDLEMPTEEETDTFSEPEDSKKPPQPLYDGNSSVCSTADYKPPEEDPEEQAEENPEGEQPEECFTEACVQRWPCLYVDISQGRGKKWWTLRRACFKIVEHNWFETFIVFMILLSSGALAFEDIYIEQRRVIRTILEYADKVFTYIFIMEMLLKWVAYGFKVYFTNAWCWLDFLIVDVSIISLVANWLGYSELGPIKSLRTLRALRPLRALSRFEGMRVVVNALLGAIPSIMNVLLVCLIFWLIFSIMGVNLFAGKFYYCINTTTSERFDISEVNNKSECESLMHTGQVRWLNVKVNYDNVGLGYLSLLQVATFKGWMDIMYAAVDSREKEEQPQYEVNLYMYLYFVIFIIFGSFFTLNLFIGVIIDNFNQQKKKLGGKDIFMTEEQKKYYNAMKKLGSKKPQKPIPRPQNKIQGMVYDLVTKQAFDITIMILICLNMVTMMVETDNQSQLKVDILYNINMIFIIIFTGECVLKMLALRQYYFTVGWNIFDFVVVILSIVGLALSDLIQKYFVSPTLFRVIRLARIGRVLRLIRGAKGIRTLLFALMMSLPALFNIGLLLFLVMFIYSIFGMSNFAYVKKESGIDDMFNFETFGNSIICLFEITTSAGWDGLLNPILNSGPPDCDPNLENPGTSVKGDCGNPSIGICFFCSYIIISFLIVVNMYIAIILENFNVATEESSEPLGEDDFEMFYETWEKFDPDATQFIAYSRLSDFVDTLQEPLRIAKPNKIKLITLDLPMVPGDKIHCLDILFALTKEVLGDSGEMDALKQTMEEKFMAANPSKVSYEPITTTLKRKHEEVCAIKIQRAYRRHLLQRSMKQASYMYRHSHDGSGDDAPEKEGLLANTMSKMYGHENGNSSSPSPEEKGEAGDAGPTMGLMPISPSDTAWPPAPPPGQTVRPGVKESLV
Sequence of UniProt Q9UUJ1 (whole entry, looked up): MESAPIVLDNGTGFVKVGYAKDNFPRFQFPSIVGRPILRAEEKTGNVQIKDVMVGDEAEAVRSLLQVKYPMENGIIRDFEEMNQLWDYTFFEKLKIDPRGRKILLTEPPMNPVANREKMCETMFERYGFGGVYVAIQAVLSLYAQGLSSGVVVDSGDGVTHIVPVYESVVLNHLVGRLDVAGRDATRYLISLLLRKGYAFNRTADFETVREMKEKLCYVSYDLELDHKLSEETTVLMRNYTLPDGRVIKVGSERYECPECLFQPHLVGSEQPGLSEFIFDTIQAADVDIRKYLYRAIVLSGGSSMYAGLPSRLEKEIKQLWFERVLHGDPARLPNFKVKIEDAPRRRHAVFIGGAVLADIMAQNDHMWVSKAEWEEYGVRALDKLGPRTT
Sequence of UniProt P35236 (whole entry, looked up): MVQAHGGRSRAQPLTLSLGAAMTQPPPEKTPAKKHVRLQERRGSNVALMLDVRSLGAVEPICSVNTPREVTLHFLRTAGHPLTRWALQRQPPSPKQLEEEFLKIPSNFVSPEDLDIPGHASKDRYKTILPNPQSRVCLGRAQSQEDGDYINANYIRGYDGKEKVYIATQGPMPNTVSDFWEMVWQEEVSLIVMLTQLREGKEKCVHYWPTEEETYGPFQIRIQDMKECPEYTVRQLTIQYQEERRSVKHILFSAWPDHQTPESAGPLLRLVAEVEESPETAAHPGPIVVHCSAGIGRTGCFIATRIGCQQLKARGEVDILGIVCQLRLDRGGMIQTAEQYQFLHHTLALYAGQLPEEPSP
Sequence of UniProt P23975 (whole entry, looked up): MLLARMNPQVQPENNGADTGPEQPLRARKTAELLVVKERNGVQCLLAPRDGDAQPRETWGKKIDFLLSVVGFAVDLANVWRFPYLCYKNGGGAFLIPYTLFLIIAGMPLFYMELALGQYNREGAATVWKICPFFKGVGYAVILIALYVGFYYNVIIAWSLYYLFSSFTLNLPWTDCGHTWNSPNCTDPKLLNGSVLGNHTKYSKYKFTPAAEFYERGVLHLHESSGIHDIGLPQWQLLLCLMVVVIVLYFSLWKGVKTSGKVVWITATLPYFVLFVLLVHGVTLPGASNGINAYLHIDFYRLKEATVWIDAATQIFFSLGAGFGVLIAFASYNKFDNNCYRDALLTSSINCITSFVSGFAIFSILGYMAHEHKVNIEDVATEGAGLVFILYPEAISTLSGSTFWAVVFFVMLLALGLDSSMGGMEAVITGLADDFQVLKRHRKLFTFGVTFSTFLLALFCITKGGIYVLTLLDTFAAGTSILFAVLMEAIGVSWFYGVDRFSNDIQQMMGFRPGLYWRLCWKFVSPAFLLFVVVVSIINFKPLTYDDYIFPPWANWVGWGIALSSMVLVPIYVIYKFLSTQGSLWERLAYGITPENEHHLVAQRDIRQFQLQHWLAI
Sequence of UniProt Q96EB6 (whole entry, looked up): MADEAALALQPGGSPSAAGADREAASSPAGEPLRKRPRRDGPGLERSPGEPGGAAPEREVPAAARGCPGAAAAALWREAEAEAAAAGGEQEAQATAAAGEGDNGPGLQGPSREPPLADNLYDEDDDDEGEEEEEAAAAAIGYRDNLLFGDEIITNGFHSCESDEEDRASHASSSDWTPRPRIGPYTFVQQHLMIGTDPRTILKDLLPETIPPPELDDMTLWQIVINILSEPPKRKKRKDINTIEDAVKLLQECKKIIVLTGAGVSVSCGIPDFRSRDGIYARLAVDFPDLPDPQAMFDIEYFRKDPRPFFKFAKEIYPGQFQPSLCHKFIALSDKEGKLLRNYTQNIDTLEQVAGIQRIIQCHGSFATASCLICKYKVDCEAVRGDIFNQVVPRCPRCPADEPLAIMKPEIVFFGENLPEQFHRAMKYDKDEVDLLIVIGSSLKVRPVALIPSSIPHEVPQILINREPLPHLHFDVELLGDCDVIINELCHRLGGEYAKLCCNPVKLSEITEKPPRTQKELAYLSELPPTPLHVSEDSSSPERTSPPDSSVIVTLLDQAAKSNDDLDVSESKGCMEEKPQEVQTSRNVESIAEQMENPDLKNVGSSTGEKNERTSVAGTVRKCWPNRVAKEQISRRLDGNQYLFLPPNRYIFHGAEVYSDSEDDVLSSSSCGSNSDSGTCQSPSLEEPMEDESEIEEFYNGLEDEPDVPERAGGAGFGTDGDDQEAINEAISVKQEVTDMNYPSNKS
Sequence of UniProt P14780 (whole entry, looked up): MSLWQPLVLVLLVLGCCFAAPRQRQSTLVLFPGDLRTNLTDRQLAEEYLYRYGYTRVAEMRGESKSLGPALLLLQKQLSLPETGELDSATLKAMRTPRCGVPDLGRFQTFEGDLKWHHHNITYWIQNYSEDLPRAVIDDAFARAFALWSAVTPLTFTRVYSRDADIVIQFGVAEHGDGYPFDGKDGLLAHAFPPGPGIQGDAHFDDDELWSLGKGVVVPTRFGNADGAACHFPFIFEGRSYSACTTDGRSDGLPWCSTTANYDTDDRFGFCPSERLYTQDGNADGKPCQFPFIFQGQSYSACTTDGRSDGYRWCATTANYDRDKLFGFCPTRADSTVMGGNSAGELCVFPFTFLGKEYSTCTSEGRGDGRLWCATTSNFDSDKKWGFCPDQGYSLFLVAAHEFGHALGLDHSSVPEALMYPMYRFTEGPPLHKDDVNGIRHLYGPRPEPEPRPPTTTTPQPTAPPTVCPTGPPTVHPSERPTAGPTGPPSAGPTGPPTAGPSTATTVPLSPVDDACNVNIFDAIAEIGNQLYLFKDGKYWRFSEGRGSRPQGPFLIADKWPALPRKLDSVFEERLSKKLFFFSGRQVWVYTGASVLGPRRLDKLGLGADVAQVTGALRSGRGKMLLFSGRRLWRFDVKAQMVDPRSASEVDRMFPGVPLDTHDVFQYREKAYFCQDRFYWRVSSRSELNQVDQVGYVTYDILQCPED
Sequence of UniProt P30550 (whole entry, looked up): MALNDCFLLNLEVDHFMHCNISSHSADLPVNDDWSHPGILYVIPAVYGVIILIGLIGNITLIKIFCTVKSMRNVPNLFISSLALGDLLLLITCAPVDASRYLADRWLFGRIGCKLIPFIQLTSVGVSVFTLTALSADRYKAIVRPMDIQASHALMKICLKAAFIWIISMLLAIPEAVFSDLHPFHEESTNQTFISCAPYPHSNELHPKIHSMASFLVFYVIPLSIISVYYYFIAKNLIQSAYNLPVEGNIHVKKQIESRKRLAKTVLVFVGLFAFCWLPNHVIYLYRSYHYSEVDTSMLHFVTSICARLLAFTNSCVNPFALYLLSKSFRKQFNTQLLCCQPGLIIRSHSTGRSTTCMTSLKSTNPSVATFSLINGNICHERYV

`COc1cc(C(C2C(=O)CC(C)(C)CC2=O)C2C(=O)CC(C)(C)CC2=O)ccc1O` has an IC50 of 264400 ± 1070 nM (PCO4 (Arabidopsis thaliana, UniProt Q9SJI9); enzyme activity, inhibitor, RapidFire Q-TOF MS; with: RAP2 peptide substrate).
The IC50 of `COc1ccc2cc(C(=O)NCCCN3CCC(Cc4ccccc4)CC3)ccc2c1` is reported as 20 to 2720 nM (SLC6A2 (Homo sapiens, UniProt P23975); transporter uptake, inhibitor, radiometric).
With `O=c1c2ccccc2on1-c1ccccc1` the IC50 was > 10000 nM (HDAC11 (Homo sapiens, UniProt Q96DB2); enzyme activity, inhibitor).
`CNC(=O)C1CCN(c2cc(C)c(F)cc2NC(=O)c2ccc(-c3cc(O)ccc3C)c(C)c2)CC1` has an IC50 of 52.7 nM (EPHA5 (Homo sapiens, UniProt P54756); target engagement in cells, BRET).
`Cc1nc(N)ccc1-c1cc(Cl)cc(C(F)(F)F)c1` has an IC50 of ~85000 nM (STUB1 (Homo sapiens, UniProt Q9UNE7); ubiquitylation, inhibitor, reconstituted ubiquitylation, item: tau and proteasome ubiquitylation).
`CSCC[C@H](NC(=O)[C@H](CC(C)C)NC(=O)[C@H](Cc1cnc[nH]1)NC(=O)CNC(=O)[C@@H](NC(=O)[C@H](C)NC(=O)[C@H](Cc1c[nH]c2ccccc12)NC(=O)[C@H](Cc1cnc[nH]1)NC(=O)[C@H](CC(N)=O)NC(=O)CN)C(C)C)C(N)=O` has an IC50 of 0.14 nM (GRPR (Homo sapiens, UniProt P30550); ligand displacement in cells, radioligand).
For `NS(=O)(=O)c1ccc(NC(=O)NN[C@@H]2O[C@H](CO)[C@@H](O)[C@H](O)[C@@H]2O)cc1`, the IC50 was 45 nM (CA9 (Homo sapiens, UniProt Q16790); enzyme activity, inhibitor).
`Cc1cccc(C)c1NC(=O)CC(C)NCc1cccc2ccccc12` (centres unmarked) gave an IC50 of 14000 ± 2000 nM (SCN4A (Homo sapiens, UniProt P35499, F1586C); phasic block of sodium current, whole-cell patch clamp; HEK293; 10 Hz stimulation).
With `N[C@@H](CCC(=O)N[C@@H](CS[Se]Cc1ccc(-c2cccc(C(O)c3ccc(Cl)c(Cl)c3)c2)cc1)C(=O)NCC(=O)O)C(=O)O` (some centres unmarked) the IC50 was 2500 ± 100 nM (PTPN7 (Homo sapiens, UniProt P35236); enzyme activity, inhibitor; with: pNPP, GSH 1 mM).
With `CC[C@H](C)[C@H](NC(=O)[C@H](Cc1ccccc1)NC(=O)[C@H](CC(=O)O)NC(=O)[C@H](CCCNC(=N)N)NC(=O)[C@H](C)NC(=O)[C@H](C)NC(=O)[C@H](CC(C)C)NC(=O)[C@H](CC(N)=O)NC(=O)[C@H](CC(=O)O)NC(=O)[C@H](CC(C)C)NC(=O)[C@@H](NC(=O)[C@@H](NC(=O)[C@H](CC(N)=O)NC(=O)[C@H](CCSC)NC(=O)[C@H](CCC(=O)O)NC(=O)[C@H](CC(=O)O)NC(=O)[C@H](CO)NC(=O)[C@H](Cc1ccccc1)NC(=O)[C@H](CO)NC(=O)CCNC(=O)[C@H](CC(=O)O)NC(=O)[C@H](C)NC(=O)[C@@H](N)Cc1c[nH]cn1)[C@@H](C)O)[C@@H](C)CC)C(=O)N[C@@H](CC(N)=O)C(=O)N[C@@H](Cc1c[nH]c2ccccc12)C(=O)N[C@@H](CC(C)C)C(=O)N[C@H](C(=O)N[C@@H](CCC(N)=O)C(=O)N[C@H](C(=O)N[C@@H](CCCCN)C(=O)N[C@H](C(=O)N[C@H](C(=O)N[C@@H](CC(=O)O)C(N)=O)[C@@H](C)O)[C@@H](C)CC)[C@@H](C)O)[C@@H](C)CC` the IC50 was 38 nM (GLP2R (Homo sapiens, UniProt O95838)).
`O=C(CNc1nc(NNC(=O)c2ccc(Nc3nc(Nc4ccc(C(=O)NNc5nc(NCC(=O)NO)nc(N6CCCCC6)n5)cc4)nc(Nc4ccc(C(=O)NNc5nc(NCC(=O)NO)nc(N6CCCCC6)n5)cc4)n3)cc2)nc(N2CCCCC2)n1)NO` has an IC50 of 207 nM (MMP9 (Homo sapiens, UniProt P14780); enzyme activity, inhibitor, absorbance).
With `Cc1cc(C)nc(SCC(=O)Nc2ncc(Cc3cccc(OCc4cn(-c5ccc(Cl)cc5)nn4)c3)s2)n1` the IC50 was > 100000 nM (SIRT1 (Homo sapiens, UniProt Q96EB6); enzyme activity, inhibitor, fluorescence).
`Cc1[nH]c2ccccc2c1CCNC(=O)c1cccs1` gave an IC50 of 24000 nM (act2/arp2 (Schizosaccharomyces pombe, UniProt P32390+Q9UUJ1); actin polymerization, inhibitor, pyrenyl-actin polymerization; with: N-WASp VCA).
With `CCCCCCCC(=O)OCCN1CCN(c2cc(Nc3ncc(C(=O)Nc4c(C)cccc4Cl)s3)nc(C)n2)CC1` the IC50 was 7.5 nM (SRC (Homo sapiens, UniProt P12931); enzyme activity, inhibitor).

Some of these lines once more:
The IC50 of `COc1ccc2cc(C(=O)NCCCN3CCC(Cc4ccccc4)CC3)ccc2c1` is reported as 20 to 2720 nM (SLC6A2 (Homo sapiens, UniProt P23975); transporter uptake, inhibitor, radiometric).
With `O=c1c2ccccc2on1-c1ccccc1` the IC50 was > 10000 nM (HDAC11 (Homo sapiens, UniProt Q96DB2); enzyme activity, inhibitor).
